Measurements collected from several papers.
Protocols differ between the studies behind these lines.

SMILES | organism | test | test system | conditions | MIC
CN(C)c1cc(CN2CCCCCC2)c(O)c2c1C[C@H]1C[C@H]3[C@H](N(C)C)C(O)=C(C(N)=O)C(=O)[C@@]3(O)C(O)=C1C2=O | Streptococcus pneumoniae | microbial growth, broth dilution | – | – | 0.125 µg/mL
C[C@@H](c1ccn(Cc2cc(F)cc(F)c2)n1)[C@](O)(Cn1cnnn1)c1ccc(F)cc1F | Candida tropicalis | growth, broth microdilution | 2718 | 24 h, 30 °C, ≥50% inhibition | < 0.008 µg/mL
CC1CCN(Cc2cc(N(C)C)c3c(c2O)C(=O)C2=C(O)[C@]4(O)C(=O)C(C(N)=O)=C(O)[C@@H](N(C)C)[C@@H]4C[C@@H]2C3)CC1 | Streptococcus pneumoniae | microbial growth, broth dilution | – | – | < 0.06 µg/mL
c1ccc(CN2CCOCCOCCN(CCCCCCCCCCCCCCN3CCOCCOCCN(CCCCCCCCCCCCCCN4CCOCCOCCN(Cc5ccccc5)CCOCCOCC4)CCOCCOCC3)CCOCCOCC2)cc1 | Streptococcus pneumoniae | – | R:Pen | – | 3 µM
CC[C@@H](C)[C@@H](NC(=O)[C@@H](C)NC(=O)[C@@H](CCCCN)NC(=O)[C@@H](CC(C)C)NC(=O)[C@@H](C)NC(=O)[C@H](NC(=O)[C@@H](CCCCN)NC(=O)[C@@H](CC(C)C)NC(=O)[C@H](NC(=O)[C@@H](CCCCN)NC(=O)[C@@H](CCCCN)NC(=O)[C@@H](CCCCN)NC(=O)[C@@H](C)NC(=O)[C@@H](CCCCN)NC(=O)[C@@H](CO)NC(=O)[C@@H](Cc1ccccc1)NC(=O)[C@H](NC(=O)[C@@H](CCCCN)NC(=O)[C@@H](CC(C)C)NC(=O)[C@@H](Cc1ccccc1)NC(=O)[C@@H](CO)NC(=O)[C@@H](CCCCN)NC(=O)[C@@H](Cc1c[nH]c2ccccc12)NC(=O)[C@@H](CCCCN)NC(C)=O)[C@H](C)O)C(C)C)[C@H](C)O)C(=O)N[C@H](CO)C(=O)N[C@H](CCCCN)C(N)=O | Acinetobacter baumannii | broth microdilution | ATCC 19606 | 24 h, 37 °C | 0.7 µM
C[C@@H](c1ccn(Cc2ccc(C#N)cc2)n1)[C@](O)(Cn1cnnn1)c1ccc(F)cc1F | Candida tropicalis | growth, broth microdilution | 2718 | 24 h, 30 °C, ≥50% inhibition | < 0.008 µg/mL
CN(C)c1cc(CNCCC(C)(C)C)c(O)c2c1C[C@H]1C[C@H]3[C@H](N(C)C)C(O)=C(C(N)=O)C(=O)[C@@]3(O)C(O)=C1C2=O | Streptococcus pneumoniae | – | 157E | 50% mouse serum | 0.5 µg/mL
C[C@@H](c1ccn(Cc2ccccc2)n1)[C@](O)(Cn1cnnn1)c1ccc(F)cc1F | Candida tropicalis | growth, broth microdilution | 2718 | 24 h, 30 °C, ≥50% inhibition | < 0.008 µg/mL
CN(C)c1cc(CNCc2ccncc2)c(O)c2c1C[C@H]1C[C@H]3[C@H](N(C)C)C(O)=C(C(N)=O)C(=O)[C@@]3(O)C(O)=C1C2=O | Streptococcus pneumoniae | microbial growth, broth dilution | – | – | 2 µg/mL
C[C@@H](c1ccn(Cc2cccc(F)c2F)n1)[C@](O)(Cn1cnnn1)c1ccc(F)cc1F | Candida tropicalis | growth, broth microdilution | 2718 | 24 h, 30 °C, ≥50% inhibition | < 0.008 µg/mL
CN(C)c1cc(CNCc2ccco2)c(O)c2c1C[C@H]1C[C@H]3[C@H](N(C)C)C(O)=C(C(N)=O)C(=O)[C@@]3(O)C(O)=C1C2=O | Streptococcus pneumoniae | microbial growth, broth dilution | – | – | 0.5 µg/mL
CC[C@@H](C)[C@@H](NC(=O)[C@@H](C)NC(=O)[C@@H](CCCCN)NC(=O)[C@@H](CC(C)C)NC(=O)[C@@H](CC(C)C)NC(=O)[C@H](NC(=O)[C@@H](CCCCN)NC(=O)[C@@H](CC(C)C)NC(=O)[C@@H](CCCCN)NC(=O)[C@@H](CCCCN)NC(=O)[C@@H](CCCCN)NC(=O)[C@@H](CCCCN)NC(=O)[C@@H](C)NC(=O)[C@@H](CCCCN)NC(=O)[C@@H](CO)NC(=O)[C@@H](Cc1ccccc1)NC(=O)[C@H](NC(=O)[C@@H](CCCCN)NC(=O)[C@@H](CC(C)C)NC(=O)[C@@H](Cc1ccccc1)NC(=O)[C@@H](CO)NC(=O)[C@@H](CCCCN)NC(=O)[C@@H](Cc1c[nH]c2ccccc12)NC(=O)[C@@H](CCCCN)NC(C)=O)[C@H](C)O)[C@H](C)O)C(=O)N[C@H](CO)C(=O)N[C@H](CCCCN)C(N)=O | Acinetobacter baumannii | – | 1012, Mueller-Hinton broth | 24 h, 37 °C | 0.6 µM
N#Cc1ccc2cccc(O)c2n1 | Saccharomyces cerevisiae | microbial growth | ATCC2601 | – | ≥ 645 µM
CN(C)c1cc(CNC2CCCC2)c(O)c2c1C[C@H]1C[C@H]3[C@H](N(C)C)C(O)=C(C(N)=O)C(=O)[C@@]3(O)C(O)=C1C2=O | Streptococcus pneumoniae | – | 157E | 50% mouse serum | < 0.06 µg/mL
Oc1c(Cl)cc(Cl)c2cccnc12 | Saccharomyces cerevisiae | microbial growth, agar dilution | ATCC2601 | – | 37.4 µM
C[C@@H](c1ccn(Cc2cccc(Cl)c2F)n1)[C@](O)(Cn1cnnn1)c1ccc(F)cc1F | Candida tropicalis | growth, broth microdilution | 2718 | 24 h, 30 °C, ≥50% inhibition | < 0.008 µg/mL
CC[C@@H](C)[C@@H](NC(=O)[C@@H](C)NC(=O)[C@@H](CCCCN)NC(=O)[C@@H](CC(C)C)NC(=O)[C@@H](C)NC(=O)[C@H](NC(=O)[C@@H](Cc1c[nH]cn1)NC(=O)[C@@H](CC(C)C)NC(=O)[C@H](NC(=O)[C@H](NC(=O)[C@@H](CCCCN)NC(=O)[C@H](NC(=O)[C@@H](C)NC(=O)[C@@H](CO)NC(=O)[C@@H](CCCCN)NC(=O)[C@@H](Cc1ccccc1)NC(=O)[C@H](NC(=O)[C@@H](CCCCN)NC(=O)[C@@H](CC(C)C)NC(=O)[C@@H](Cc1ccccc1)NC(=O)[C@@H](CO)NC(=O)[C@@H](CCCCN)NC(=O)[C@@H](Cc1c[nH]c2ccccc12)NC(=O)[C@@H](CCCCN)NC(C)=O)[C@H](C)O)C(C)C)[C@H](C)O)C(C)C)[C@H](C)O)C(=O)N[C@H](CO)C(=O)N[C@H](CO)C(N)=O | Acinetobacter baumannii | – | 821, Mueller-Hinton broth | 24 h, 37 °C | 0.7 µM
C[C@@H](c1ccn(Cc2ccc(C(F)(F)F)cc2)n1)[C@](O)(Cn1cnnn1)c1ccc(F)cc1F | Candida tropicalis | growth, broth microdilution | 2718 | 24 h, 30 °C, ≥50% inhibition | < 0.008 µg/mL
CC[C@@H](C)[C@@H](NC(=O)[C@@H](C)NC(=O)[C@@H](CCCCN)NC(=O)[C@@H](CC(C)C)NC(=O)[C@@H](CC(C)C)NC(=O)[C@H](NC(=O)[C@@H](CCCCN)NC(=O)[C@@H](CC(C)C)NC(=O)[C@@H](C)NC(=O)[C@@H](CCCCN)NC(=O)[C@@H](CCCCN)NC(=O)[C@@H](CCCCN)NC(=O)[C@@H](C)NC(=O)[C@@H](CCCCN)NC(=O)[C@@H](CO)NC(=O)[C@@H](Cc1ccccc1)NC(=O)[C@H](NC(=O)[C@@H](CCCCN)NC(=O)[C@@H](CC(C)C)NC(=O)[C@@H](Cc1ccccc1)NC(=O)[C@@H](CO)NC(=O)[C@@H](CCCCN)NC(=O)[C@@H](Cc1c[nH]c2ccccc12)NC(=O)[C@@H](CCCCN)NC(C)=O)[C@H](C)O)[C@H](C)O)C(=O)N[C@H](CO)C(=O)N[C@H](CCCCN)C(N)=O | Acinetobacter baumannii | – | 985, Mueller-Hinton broth | 24 h, 37 °C | 0.7 µM

Some of these lines once more:
SMILES | organism | test | test system | conditions | MIC
CC[C@@H](C)[C@@H](NC(=O)[C@@H](C)NC(=O)[C@@H](CCCCN)NC(=O)[C@@H](CC(C)C)NC(=O)[C@@H](C)NC(=O)[C@H](NC(=O)[C@@H](CCCCN)NC(=O)[C@@H](CC(C)C)NC(=O)[C@H](NC(=O)[C@@H](CCCCN)NC(=O)[C@@H](CCCCN)NC(=O)[C@@H](CCCCN)NC(=O)[C@@H](C)NC(=O)[C@@H](CCCCN)NC(=O)[C@@H](CO)NC(=O)[C@@H](Cc1ccccc1)NC(=O)[C@H](NC(=O)[C@@H](CCCCN)NC(=O)[C@@H](CC(C)C)NC(=O)[C@@H](Cc1ccccc1)NC(=O)[C@@H](CO)NC(=O)[C@@H](CCCCN)NC(=O)[C@@H](Cc1c[nH]c2ccccc12)NC(=O)[C@@H](CCCCN)NC(C)=O)[C@H](C)O)C(C)C)[C@H](C)O)C(=O)N[C@H](CO)C(=O)N[C@H](CCCCN)C(N)=O | Acinetobacter baumannii | broth microdilution | ATCC 19606 | 24 h, 37 °C | 0.7 µM
CN(C)c1cc(CNC2CCCC2)c(O)c2c1C[C@H]1C[C@H]3[C@H](N(C)C)C(O)=C(C(N)=O)C(=O)[C@@]3(O)C(O)=C1C2=O | Streptococcus pneumoniae | – | 157E | 50% mouse serum | < 0.06 µg/mL
